Experimental data of several laboratories.
Lines come from different studies, so protocols differ. ± marks the error that the study gave.

The Ki of CN(C)C(=N)N=C(N)N is reported as > 50000 µM (ARG2 (Homo sapiens, UniProt P78540); enzyme activity, inhibitor, absorbance).
CC(=O)N[C@@H](CCCNC(=N)N)C(=O)N[C@@H](Cc1ccc(O)cc1)C(=O)N[C@@H](CCCNC(=N)NC(=O)NCCCCN)C(=O)N[C@@H](CC(C)C)C(=O)N[C@@H](CCCNC(=N)N)C(=O)N[C@@H](Cc1ccc(O)cc1)C(=O)O gave a Ki of > 5 µM (NPY1R (Homo sapiens, UniProt P25929); ligand displacement, radioligand).
CC[C@H](C)[C@H](NC(=O)[C@@H]1CSCC(=O)NCCC[C@H](NC(=O)[C@H](Cc2ccc(O)cc2)NC(=O)CNC(C)=O)C(=O)N[C@@H](CO)C(=O)N[C@@H](CCCNC(=N)N)C(=O)N[C@@H](CO)C(=O)N[C@@H](Cc2ccc(O)cc2)C(=O)N2CCC[C@H]2C(=O)N2CCC[C@H]2C(=O)N[C@@H](C(C)C)C(=O)N1)C(=O)N1CCC[C@H]1C(=O)N[C@@H](CC(=O)O)C(N)=O gave a Ki of 84 ± 19 µM (Mannan-binding lectin serine protease 2 (Homo sapiens, UniProt O00187); added: 250 µM Z-L-Lys-SBzl substrate).
For Cc1cc2c(cc1Cl)Cc1c(C(=O)NC3CC4CC(C3C)C4(C)C)nn(-c3ccc(Cl)cc3Cl)c1-2 (stereo not drawn), the Ki was > 5 µM (Cnr1 (Mus musculus, UniProt P47746); binding, radioligand displacement; mouse brain homogenate without cerebellum; added: [3H]CP-55,940).
With CC[C@H](C)[C@H](NC(=O)CN)C(=O)N[C@H](C(=O)N[C@@H](CC(N)=O)C(=O)N[C@H](C(=O)N[C@@H](CC(C)C)C(=O)N[C@@H](CCC(N)=O)C(=O)N[C@@H](CCCCN)C(=O)N[C@@H](Cc1ccc(O)cc1)C(=O)N[C@@H](Cc1ccc(O)cc1)C(=O)N[C@H]1CSSC[C@@H]2NC(=O)[C@H](CCCCN)NC(=O)[C@H](CCCNC(=N)N)NC(=O)CNC(=O)[C@H](CCCNC(=N)N)NC(=O)[C@H]([C@@H](C)O)NC(=O)[C@H](CO)NC(=O)[C@@H]3CSSC[C@H](NC(=O)[C@H](CCCNC(=N)N)NC(=O)CNC(=O)CNC(=O)[C@H](CCCNC(=N)N)NC(=O)[C@H](C(C)C)NC(=O)[C@H](CCCNC(=N)N)NC1=O)C(=O)N[C@@H](C)C(=O)N[C@@H](C(C)C)C(=O)N[C@@H](CC(C)C)C(=O)N[C@@H](CO)C(=O)N[C@@H](CSSC[C@@H](C(=O)N[C@@H](C)C(=O)N[C@@H](CCCNC(=N)N)C(=O)N[C@@H](C)C(=O)N[C@@H](CCCCN)C(N)=O)NC2=O)C(=O)N[C@@H](CC(C)C)C(=O)N1CCC[C@H]1C(=O)N[C@@H](CCCCN)C(=O)N[C@@H](CCC(=O)O)C(=O)N[C@@H](CCC(=O)O)C(=O)N[C@@H](CCC(N)=O)C(=O)N[C@@H]([C@@H](C)CC)C(=O)NCC(=O)N[C@@H](CCCCN)C(=O)N3)[C@@H](C)O)[C@@H](C)CC the Ki was 0.099 µM (MC1R (Homo sapiens, UniProt Q01726); ligand displacement in cells).
CC[C@H](C)[C@H](NC(=O)[C@@H](CCc1ccc(O)cc1)CNC(=O)[C@@H]1CCCN1C(=O)[C@H](CCCNC(=N)N)NC(=O)[C@@H](N)CCCNC(=N)N)C(=O)N[C@@H](CC(C)C)C(=O)O gave a Ki of 3.6 µM (NTSR2 (Homo sapiens, UniProt O95665); ligand displacement, radioligand; cell membranes).
For CCCCCCCCCCCCCCCc1ccc(C(F)P(=O)(O)O)cc1 (racemic), the Ki was 4.97 µM (Autotaxin (ENPP2, Homo sapiens, UniProt Q13822); free enzyme).
CC(=O)N(C)[C@@H](Cc1ccccc1)C(=O)N[C@@H](Cc1ccccc1)C(=O)N[C@@H](Cc1c[nH]c2ccccc12)C(=O)N[C@@H](CCCNC(=N)N)C(=O)N[C@@H](CC(C)C)C(=O)N[C@@H](CCCNC(=N)N)C(=O)N[C@@H](CCCNC(=N)N)C(=O)N[C@H](C)C(=O)N[C@@H](CCCNC(=N)N)C(=O)N1CCC[C@H]1C(=O)N[C@@H](CCCCN)C(N)=O gave a Ki of 0.013 µM (Oprk1 (Rattus norvegicus, UniProt P34975); ligand displacement, radioligand).
For CCCc1ccc2c(c1)sc(=O)n2CCCCN1CCCCCC1, the Ki was 0.0061 ± 0.0012 µM (Sigmar1 (Rattus norvegicus, UniProt Q9R0C9); binding, radioligand binding; rat liver membranes; added: [3H](+)-pentazocine 5 nM).

A few entries again:
CC(=O)N[C@@H](CCCNC(=N)N)C(=O)N[C@@H](Cc1ccc(O)cc1)C(=O)N[C@@H](CCCNC(=N)NC(=O)NCCCCN)C(=O)N[C@@H](CC(C)C)C(=O)N[C@@H](CCCNC(=N)N)C(=O)N[C@@H](Cc1ccc(O)cc1)C(=O)O gave a Ki of > 5 µM (NPY1R (Homo sapiens, UniProt P25929); ligand displacement, radioligand).
